Measurements collected from several papers.
Protocols differ between the studies behind these lines. Numbers after ± are the reported error.

For COC(=O)C1(c2ccccc2)C=C(C(=O)OC(C)(C)C)C(=O)CC1 (centres unmarked), the selectivity ratio was over 10 fold (p38α MAPK human; baseline: Ki JNK1 over Ki p38α).
With C=CC(=O)N1CCC(c2cc(Nc3cc4n(n3)CCOC4)c3ncnn3c2)C1 (single isomer, unassigned) the IC50 was over 1000 nM (PLCgamma2 activation; IP1 production, HTRF; Ramos, BTK knock-out; 4 h preincubation, added: anti-IgM; baseline: Ramos wild type).
C#CCCCN1C(=O)C2(CN2[S+]([O-])C(C)(C)C)c2ccccc21 (centres unmarked) gave an EC50 of over 50000 nM (MYC; reporter gene, inhibitor, luciferase reporter; HEK-293T; 24 h).
C/C=C/Cn1c(Cc2cc(OC)c(OC)c(OC)c2)nc2c(N)ncnc21 gave a Ki of 1500 ± 20 nM (Hsp90α; binding, fluorescence polarization competition; added: Cy3B-geldanamycin tracer).
Under kallikrein activity, CN(C)c1cccc(Oc2cnc(Nc3ccccc3)nc2)c1 is recorded as “decreased” (factor XII contact system, human; inhibitor, chromogenic substrate S-2302; 40 µM, added: amyloid-beta 42 oligomers 1 µM).
For Nc1ccc(Cl)c2cccnc12, acetyl-p53 level read “no effect” (SIRT1; immunoblot; HUVEC; up to 10 µM).
COc1cc(Nc2ccnc3cc(C#N)ccc23)cc(OC)c1OC — result for “IC50 fold change”: over 10 fold (human COQ8A N-terminal truncated F495L; ATPase activity; baseline: F495L over wild type).
CCC(C)(C(=O)Nc1ccc(Br)cc1)n1nc(C)cc(Cc2cccc(OC)c2)c1=O (racemic) has an EC50 of 500 nM (human formyl peptide receptors; calcium mobilization, agonist; human neutrophils).
With COc1cc(C(=O)N2CCC(N3CCN(C)CC3)CC2)ccc1Nc1ncc2c(n1)N(C(C)C)c1ccccc1C(=O)N2C the EC50 was 14 ± 4 nM (ERK5, human; autophosphorylation; HeLa; added: EGF).
NC(=O)[C@@H]1CCNC(=O)[C@H](CCCNC(=O)c2cnccn2)NC(=O)[C@H](Cc2ccco2)NC(=O)[C@H](CC2CC2)NC(=O)/C=C\C(=O)N1 has a selectivity ratio of over 10 fold (Src-family kinases human; excluding Fgr; baseline: Src over Src-family kinases).
With CCC[C@H](O)[C@H](NC[C@@H]1Cc2cccc(c2)CCCCc2cc(cc(N(CCC)S(C)(=O)=O)c2)C(=O)N1)C(=O)NCC(C)C the selectivity ratio was 15 fold (BACE1 and BACE2; enzyme activity, inhibitor, fluorogenic peptide substrate; baseline: BACE2 Ki over BACE1 Ki).
CCCCN(CCc1ccc(Cl)c(Cl)c1)C[C@H](O)COc1ccc(NS(C)(=O)=O)cc1 has a potency ratio of 4.4 fold (NMDA receptor GluN1/GluN2A/GluN2B; Xenopus oocytes; baseline: acidic over neutral pH).
CCCC(C(=O)Nc1ccc(Br)cc1)n1nc(C)cc(Cc2cccc(OC)c2)c1=O (racemic) has an EC50 of 300 nM (human formyl peptide receptors; calcium mobilization, agonist; human neutrophils).
O=C(NNC(=S)Nc1cccc(C(F)(F)F)c1)c1cccn1-c1ccc(F)cc1 has an IC50 of 1300 nM (glucocorticoid receptor; reporter gene, antagonist; MDA-kb2; 20 h, added: dexamethasone 10 nM).
CCN1c2ccccc2C(=O)N(C)c2cnc(Nc3ccc(C(=O)N4CCC(N5CCN(C)CC5)CC4)cc3OC)nc21 gave an EC50 of 22 ± 4 nM (ERK5, human; autophosphorylation; HeLa; added: EGF).
With COc1cccc(Cc2cc(C)nn(C(C(=O)Nc3ccc(Br)cc3)c3ccccc3)c2=O)c1 (racemic) the EC50 was 4300 nM (human formyl peptide receptors; calcium mobilization, agonist; human neutrophils).
COC(=O)[C@@H]1C(C=Nc2cc(Cl)ccc2O)=Cc2cc3c(cc2[C@H]1c1cc(OC)c(OC)c(OC)c1)OCO3 gave an EC50 of 14200 ± 1800 nM (Leishmania infantum; promastigote, iRFP).
NCc1cccc(C2CCN(C(=O)c3cccc(NC(=O)C(O)C4(O)CCC4)c3)CC2)c1 (racemic) has an IC50 of 21800 nM (tryptase, human; enzyme activity, inhibitor; HMC-1, lysate of treated cells).
COc1cc(C(=O)N2CCC(N3CCN(C)CC3)CC2)ccc1Nc1ncc2c(n1)N(C1CCC1)c1ccccc1C(=O)N2C has an EC50 of 19 ± 5 nM (ERK5, human; autophosphorylation; HeLa; added: EGF).
The EC50 of COc1cc([C@@H]2c3cc4c(cc3[C@H](C=C(C)C)[C@H]3COC(=O)[C@H]23)OCO4)cc(OC)c1OC is reported as over 100000 nM (Leishmania infantum; promastigote, iRFP).

A few entries again:
For COC(=O)C1(c2ccccc2)C=C(C(=O)OC(C)(C)C)C(=O)CC1 (centres unmarked), the selectivity ratio was over 10 fold (p38α MAPK human; baseline: Ki JNK1 over Ki p38α).
With C=CC(=O)N1CCC(c2cc(Nc3cc4n(n3)CCOC4)c3ncnn3c2)C1 (single isomer, unassigned) the IC50 was over 1000 nM (PLCgamma2 activation; IP1 production, HTRF; Ramos, BTK knock-out; 4 h preincubation, added: anti-IgM; baseline: Ramos wild type).
